Published values from different studies.
Numbered parts are unrelated; each lists some results of a single study.

Study 1
Target: Ras GTPase-activating protein-binding protein 1, C-terminal RGG region (G3BP1, Homo sapiens, UniProt Q13283)
Sequence of UniProt Q13283 (whole entry, looked up): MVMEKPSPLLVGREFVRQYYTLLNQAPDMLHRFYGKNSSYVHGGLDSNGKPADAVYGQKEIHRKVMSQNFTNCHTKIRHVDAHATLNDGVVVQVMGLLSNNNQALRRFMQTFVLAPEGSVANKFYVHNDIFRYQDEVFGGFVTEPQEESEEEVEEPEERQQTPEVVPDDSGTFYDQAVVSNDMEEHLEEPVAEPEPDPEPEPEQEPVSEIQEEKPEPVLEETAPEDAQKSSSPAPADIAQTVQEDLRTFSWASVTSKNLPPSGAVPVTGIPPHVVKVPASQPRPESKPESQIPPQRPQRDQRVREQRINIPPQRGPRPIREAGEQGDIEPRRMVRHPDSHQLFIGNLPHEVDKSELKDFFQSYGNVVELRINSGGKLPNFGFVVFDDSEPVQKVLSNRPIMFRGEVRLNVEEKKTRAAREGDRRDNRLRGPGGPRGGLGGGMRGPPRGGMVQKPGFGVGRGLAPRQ
Method: RNA Bind-n-Seq
Molecule type: RNA
Sample: in vitro
Concentration: 1 µM
Notes: whole 134-nt RNA, ends assumed
With: 150 mM KCl
Relative to: input library
Reading: higher = stronger binding
Shared flanks, not repeated: GGGAGUUCUACAGUCCGACGAUC … UGGAAUUCUCGGGUGUCAAGG
Strand | log2 enrichment
GUCCUGUGCUACACAUCGUAUGUACCGAAUCAAAUUUUUUUAAACCCCCAAAUUUAAAAAAGUAUUAUGUUACGCCGUUCGGAUCUGCAC | -0.812
UGGCCCUGGUGGCAUGCGGGGAGGAAGAGGUGGCCUCAUGGAUCGUGGUGGUCCCGGUGGAAUGUUCAGAGGUGGCCGUGGUGGAGAUAG | 3.58
CAAGUCCUGUGCUACACAUCGUAUGUACCGAAUCGGGGAAAGGGAAAGGGAAAGGAAAGUAUUAUGUUACGCCGUUCGGAUCUGCACUUC | -1.13
UCAAGUCCUGUGCUACACAUCGUAUGUACCGAAUCGGUUUUUGGUUUUUGGUGGAAAGUAUUAUGUUACGCCGUUCGGAUCUGCACUUCC | -1.12
ACCAUGCAGGUGGGCAACUUUGGGAAGUGGGGCAAGGGGGGGAUAGGGAGGGGGGUAACACUUUGGGAACAGGUGGUCCCAGGUCGUUUC | -1.22
ACCAUGCAGGUGGGCAUCUUUGGGAAGUGGGGCAAGGGGGAGAUAGGGAGGGGGGUAACACUUUGGGAACAGGUGGUCCCAGGUCGUUUC | 2.2
GUCCUGUGCUACACAUCGUAUGUACCGAAUCGGGUUUUUGGGUUUUUUUGGGUUUGGGAAAGUAUUAUGUUACGCCGUUCGGAUCUGCAC | -0.283
CCUGUGCUACACAUCGUAUGUACCGAAUCGGGGUUUUUUUGGGGUGGGGAAAAAAAGGGGAAAGUAUUAUGUUACGCCGUUCGGAUCUGC | 0.145
UCAAGUCCUGUGCUACACAUCGUAUGUACCGAAUCGGGGUUGGUUGGGGUUGGGAAAGUAUUAUGUUACGCCGUUCGGAUCUGCACUUCC | 0.106
AAGUCCUGUGCUACACAUCGUAUGUACCGAAUCGGAAAAAGGUUUGGAAAAAAAGGAAAGUAUUAUGUUACGCCGUUCGGAUCUGCACUU | -2.11
UGUUGGAGGGACGAUGGUCCGCUCCGGGCAGGACCCUUACGCCCGCAACAAGUUCAACCAGGUGGAGAGUGAUAAGCUUCGAAUGGACAG | -2.04
UCAAGUCCUGUGCUACACAUCGUAUGUACCGAAUCGGUUUGGUUUUUGGUUUGGAAAGUAUUAUGUUACGCCGUUCGGAUCUGCACUUCC | -1.14
GUCCUGUGCUACACAUCGUAUGUACCGAAUCGGGGUGGGGUUUUUGGGGUUUUUGGGGAAAGUAUUAUGUUACGCCGUUCGGAUCUGCAC | 1.04
UCCUGUGCUACACAUCGUAUGUACCGAAUCGGGGAAAGGGGUUUUUGGGGUUUUUGGGGAAAGUAUUAUGUUACGCCGUUCGGAUCUGCA | 1.76

Study 2
Target: RNA binding protein fox-1 homolog 2, RRM domain, GST-SBP tag (RBFOX2, Homo sapiens, UniProt O43251-10, residues 100-194)
Method: RNA Bind-n-Seq
Molecule type: RNA
Sample: in vitro
Concentration: 365 nM
Notes: natural RNA segment, single round, ends assumed
Relative to: no-protein control
Reading: higher = stronger binding
Shared flanks, not repeated: GGGAGUUCUACAGUCCGACGAUC … UGGAAUUCUCGGGUGCCAA
Residues (chain): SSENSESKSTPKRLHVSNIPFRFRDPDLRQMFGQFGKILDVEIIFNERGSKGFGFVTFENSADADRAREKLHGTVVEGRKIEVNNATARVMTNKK
Strand | RBNS enrichment (R)
ACUAGGAGAGUGCAGAGCGCAGCAGAGCCUGCUCUCAUCCCUCUAUCCCCAGCCCAGUCUUCCUCCUCCAUCCUUAAGCAGUAUAAAUGCUAUGUGCCCUCUUCACUUAG | 0.483
GGCAGUUUCCAGACAGGAGAGCAAAUGCAACUCACAGCACCUGCUCAUGACCUUGGCUGAUAGGCAUGUGAAGUAGGAUGAAGCAGGACUCUUUAAUGUCAAAAAAACUG | 0.653
UGCCCCAAAAUGCAAGAUUUUCCACAAGAUUCCCAGAGACAGGAAAAUCCUCUGGCUGGCUAACUGGAAGCAUGUAGGAGAAUCCAAGCGAGGUCAACAGAGAAGGCAGG | 2.49
GGCAUAAUUUUACACCAUUUUACCAAACAUACUGAGAACGAAAACUUCAAGGAUGAUGUUAGAAAAAUGUGAUUUAACUAGAACUUGUUUGAUGUUAGCAAAUCAUGGAA | 0.329
AAUAGCAUUGUUGGAAUUUAUUCCCUUCUGUUUUAAAGGAGGUAUUUUGGAAAUUGAAAAACUUAAUUUACAAGUGCUGGUACAUCUUUUUUCUUUUGUGGACCACAGGA | 0.518
ACAUCUCUCCUCACCUCAUGAUUGUCAUUGCCUCGGUGUGAGGCUCUGAACGGUCGCCACCUCAGGGCAUUUUCCUGAGGCUCUGCUGCAAAAAAAAAAAAAAAAAUGAA | 0.593
CAUUCCAGCCGUGAUGAGCAUUGUGAUCCGAGUGGGUGCCACGUGAGAGAGGGACUGUCACUUUCCCAGACAGAAACGGCCUUUUCAGGAACCAGCAGCCGCUAGGCCAA | 0.683
GAUAGCUUCUAUUUGUUAGAAGAUGACCUAAGUCAGAAAAAAGUAGUUCCCCCUUCCUGAGAGACUCUGUCUGGGCCAGAAGCCAUUCAUUGAAAGGUUGCGAUGGCAAC | 0.192
UGUUGUUUACUAUGGAAUUAGUAUUACAUUUUGAGGUAAACAAAGAAUUUGUAUUGCUUGAUAAACUAUUAGCUUGUAAAUUAAAAUUUUUUUCUUUACCUCAGUUAACU | 0.387
GUCUGCCAAAGAUACAAGAAUAUGCAAAGUCCCUCUUACCCCCCUCCUUCCCUCAAGUCUUAGUUGGUUUGAGAGCCAGGGAUAUGGAUCCAGGGUGCUGUUGCAGGGUC | 0.547
AGGCCACCUCAGCCUGGACUUUGUUGUCCAUAUUGCUAUCAGCAUUUGGGGCAAAGCCAUUCAACAAGUCUGUAGGAAGUUCCAAACUUUCCCACAUUUUCCUGUUUUCU | 0.273
CUGGACCACUGGCUCAUCAUGCAAUGAAAAGGUGAGCAGACUUAACCCCUCCGUGCCUCAGCUUUUUCCCCACAGACACCUACCUCACAGGGGCAUUGAGAAAAAAAAAA | 1.16

Study 3
Target: RING finger protein unkempt homolog, zinc fingers 1-6, GST-SBP tag (UNK, Homo sapiens, UniProt Q9C0B0, residues 30-357)
Method: RNA Bind-n-Seq
Molecule type: RNA
Sample: in vitro
Concentration: not given
Notes: RNA with constant flanks, human-mouse chimeric sites, ends assumed
Relative to: input RNA pool
Reading: higher = stronger binding
Shared flanks, not repeated: GGGAGUUCUACAGUCCGACGAUC … CAACAGAGGAUUGAGCAUCA
Construct (chain): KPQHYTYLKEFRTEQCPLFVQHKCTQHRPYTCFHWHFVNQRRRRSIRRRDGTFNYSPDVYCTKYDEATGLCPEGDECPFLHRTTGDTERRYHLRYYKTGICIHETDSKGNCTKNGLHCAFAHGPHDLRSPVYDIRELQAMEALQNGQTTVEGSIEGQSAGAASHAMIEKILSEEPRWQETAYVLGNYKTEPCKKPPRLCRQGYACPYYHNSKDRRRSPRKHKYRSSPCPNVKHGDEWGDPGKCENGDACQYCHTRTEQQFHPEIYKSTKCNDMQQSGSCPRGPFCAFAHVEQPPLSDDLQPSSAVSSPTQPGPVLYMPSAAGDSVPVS
Strand | bound/input enrichment
UCCCAAAUCCAGCAGCUCCUUGAAAUAUUGAGACAAACACUCCACACACAGGGAAGGCGAUAACAUUGUACAUUGGUUUACAUUUUUUCCCCCUGUGGAUUUUUCUAGAGGUCAUAGUGC | 0.419 ratio
GCUCUUGGGAAUGUAAUCAGCGCCUUGGGGGACAAGAGCAAGAGGGCCACACAUGUCCCUUACAGAGACUCUAAGCUGACAAGACUCUUGCAGGAUUCCCUUGGGGGUAACAGCCAAACC | 0.0983 ratio
AUAAAGGCUAUGUUGAGUGGCCCAGGUCAGUUUGCUGAGAAUGAAACCAACGAGGUCAAUUUUAGAGAGAUACCUUCACAUGUGCUAUCAAAAGUGUGCAUGUAUUUUACCUACAAGGUC | 0.125 ratio
CUGGGUAUCAUCUCUCGUGCUGUUAGACACCUGUUCAAGAGUAUUGAUGAGAAAAAGACCUCAGCGAUUAAAAAUGGGCUGCCCCCUCCUGAAUUCAAAGUGAAUGCCCAGUUCCUAGAG | 0.277 ratio
GUCAACAGCUGCCUCAACCCCAUCCUCUAUGCUUUCUUGGAUGAGAACUUCAAGGCCUGCUUUAGAAAGUUCUGCUGUGCAUCUGCCCUGCGCCGGGACGUGCAGGUGUCUGACCGCGUG | 0.337 ratio
GUGUCCUGCUUUCAACUUAAAUCACUGAGGCAUCUCUACUAUUCUGUGAGCAUCAGGAUUUUAGUGCUGUGUCACCACAUGAGAGUUCAGAAGCAGCCUUUCUGUGGAGGGUGGGAAUGA | 0.125 ratio
UAAGUCCAUUUGUAAGCCUUCGCUCAUAAAGUUUUAAAUUCUGGACCAAUUGUGUUUGUUUCCUGAUUAUUGUAUCCAAUACUUUGCCUAGUAUGUAACUCACUCUUACUGAUAAUAAAA | 0.68 ratio
AUAGAUGAAAUUGAUGUGGACCAGGAAGGAAUUGCUGAAAUGAUCCUGGAUGAAAAUGCUAUUGCUCAGGUCCCACGCCCUGGAACGUCUUUGAAGCUCCCUGGAACUAACCAAACAGGA | 0.511 ratio
CUGUGACCACAAGAUCCUACCUGAGUGGCAGCUGAAGUUGACUCCCUCCCCUUCCCUGAACCCCCCCCCACUGCCCCCCCAUCCCCCGCAGAAUUCCGAGAUGUUGCCUCUGCACGGUUC | 1.32 ratio
GGCCUGGACCUUCCUGGGGCUAGUACAAAUAGCGGCAGUGGAGGCUCAGAGGAAAGUUUUGUUAGUGGAGGCAGUGGUAGAGGCCGUCAUGUACGGUCCUUUACUCGAUAGAUGUGUUCU | 0.354 ratio
GGCCUGGACCUUCCUGGGGCUAGUACAAAUAGCGGCAGUGGAGGCUCGAGAGGAAAGUUUGUUAGUGAGGCAGUGGUUAGAGGCCGUCAUGUACGGUCCUUUACUCGAUAGAUGUGUUCU | 0.421 ratio

Study 4
Effect on: peptide binding
Molecule type: peptide
Sample: yeast competitive growth
With: B1-Cln2 chimera
Reading: direction not given
Sequence | enrichment score
SMTDFYHSKRRLIFSK | -0.959
GLPDFVFQQQPVESEA | 1.24
PARRRLRLSVDEVSSP | 0.105
KPHVSDEEEEEPPFYH | 1.33
SSEVARHLLFQSHM | -1.04
KRNLLNEFDRII | 1.31
PKRAKRKLYTSEISSP | -0.504
DTERAHSTLDEDLERW | 0.0401
KPKPVKPVTFSTGIKM | 1.16
DGCSPIKNWSPMRL | -0.203
VLVRTSACRSLFGPVD | -1.1
IVLICAKRSLCAAFSV | -1.11
TARRIFQEPTEPKTKA | -0.769
PKNAKRNLSSEFAN | -0.347
PAKRRLELGE | 0.158
SAVPLILPQAPSGPSY | 1.94

Study 5
Target: Histone acetyltransferase KAT6A, both winged helices, GST fusion (KAT6A, Homo sapiens, UniProt Q92794, residues 1-181)
Method: protein binding microarray
Molecule type: double-stranded DNA, one strand shown
Sample: in vitro
Concentration: not given
Notes: 8-mer, flanks averaged, mean of 2 arrays, mostly near background
Relative to: not given
Reading: higher = stronger binding
Residues (chain): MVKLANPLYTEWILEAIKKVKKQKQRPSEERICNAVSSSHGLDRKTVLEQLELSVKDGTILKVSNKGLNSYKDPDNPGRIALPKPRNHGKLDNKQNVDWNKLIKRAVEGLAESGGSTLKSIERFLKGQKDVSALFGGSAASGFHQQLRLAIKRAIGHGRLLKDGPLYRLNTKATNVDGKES
Strand | E-score
CCGCGAGG | 0.326
CCATAACA | -0.0383
ACGGAGCT | 0.115
TACTACTA | 0.0645
TAGGACGA | -0.0407
CACACTTC | -0.138
AAACTCGG | 0.128
GACGTGAC | 0.00844
AATTAGAA | -0.113
AGCGGATG | 0.176
CGGTCTCA | 0.0821
CTTTGAAA | -0.0778
GATCATGC | -0.131
GCCAGCCA | -0.0996
CAGCACCG | 0.131
CGGGTGAA | 0.157
CGCTCACA | 0.169
GCCCACCA | -0.215
ATTATTCA | -0.155
AAGTATGG | -0.119
CGATGCGA | 0.163
AGGGAGTC | -0.179
GGTCGTAC | -0.0207
AAGCTCGT | -0.198
AGAGGAAA | -0.107

Excerpt of the above (study 5):
Strand | E-score
CGGTCTCA | 0.0821
CTTTGAAA | -0.0778
GATCATGC | -0.131
GCCAGCCA | -0.0996
CAGCACCG | 0.131
CGGGTGAA | 0.157
CGCTCACA | 0.169
GCCCACCA | -0.215
ATTATTCA | -0.155
